Published values from different studies.
Compare with care: the assays were run in different laboratories. ± gives the spread as reported.

| SMILES | assay | system | conditions | how to read | quantity | value |
| --- | --- | --- | --- | --- | --- | --- |
| CCCCCCCCCCCCCCCC(=O)OCC(CSC[C@H](N)C(=O)N[C@@H](CO)C(=O)N[C@@H](CCCCN)C(=O)N[C@@H](CCCCN)C(=O)N[C@@H](CCCCN)C(=O)N[C@@H](CCCCN)C(=O)NCCCCCC(=O)N[C@@H](CCCCN)C(=O)N[C@@H](CC(C)C)C(=O)N[C@H](C(=O)N[C@@H](Cc1ccccc1)C(=O)N[C@@H](Cc1ccccc1)C(=O)N[C@@H](Cc1ccc2ccccc2c1)C(=O)O)C(C)C)OC(=O)CCCCCCCCCCCCCCC (stereo partly drawn) | – | APP/PS1 mouse | intracortical, dose not given, 2 d | reference: vehicle | Iba1 staining | increased |
| CC[C@H]1[C@@H](O)[C@@H]2[C@H](CC[C@]3(C)[C@@H]([C@H](C)CCOS(=O)(=O)[O-])CC[C@@H]23)[C@@]2(C)CC[C@@H](O)C[C@@H]12.[Na+] | – | ob/ob NASH mouse, liver | 10 mg/kg, 8 weeks | – | Cidec mRNA level | 40.8 ± 10.8 RPKM |
| OCc1cnn(-c2ccccc2)n1 | prothrombin time | human plasma | 1 µM | – | clotting time | 15.5 ± 1 s |
| Cc1ccc(S(=O)(=O)N(CCc2nnc(S)o2)c2ccc(Cl)cc2)cc1 | – | rat | 75 mg/kg, 5 h, with: carrageenan | – | paw edema inhibition | 75.1% |
| C=CC(=O)Nc1cc(Nc2nccc(-n3ccc4nc(OC)ccc43)n2)c(OC)cc1N(C)CCN(C)C | – | human | 20 mg/day, 17 weeks | – | tumour shrinkage | 33.7% |
| O=[N+]([O-])c1cc(Br)cc([N+](=O)[O-])c1NS(=O)(=O)c1ccc(Br)cc1 | RNA-Seq | Arabidopsis thaliana Col seedlings, ten-day-old | 50 µM, 3 h | reference: DMSO | number of induced DEGs | 1700 |
| CCCCOCc1cn(-c2cc(Cl)ccc2Cl)nn1 | prothrombin time | human plasma | 1 µM | – | clotting time | 15.8 ± 1 s |
| Cc1ccc(N(CCc2nnc(S)n2N)S(=O)(=O)c2ccccc2)cc1 | paw oedema | rat carrageenan oedema | dose not given, 6 h | – | inhibition | 67.6% |
| CCCOC(=O)Cc1c(C)n(C(=O)c2ccc(Cl)cc2)c2ccc(OC)cc12 | hot plate test | BALB/c mice | 50 mg/kg, 30 min | – | latency of nociceptive response | 13.9 ± 1.28 s |
| CCCCCCCCCCCCCCCC(=O)N[C@@H](CCC(=O)NCCCC[C@H](NC(=O)[C@H](CC(=O)O)NC(=O)[C@H](CO)NC(=O)[C@@H](NC(=O)[C@H](Cc1ccccc1)NC(=O)[C@@H](NC(=O)CNC(=O)[C@H](CCC(N)=O)NC(=O)[C@H](CO)NC(=O)[C@@H](N)Cc1c[nH]cn1)[C@@H](C)O)[C@@H](C)O)C(=O)N[C@@H](CO)C(=O)N[C@@H](CCC(=O)O)C(=O)N[C@@H](Cc1ccc(O)cc1)C(=O)N[C@@H](CC(C)C)C(=O)N[C@@H](CC(=O)O)C(=O)N[C@@H](CO)C(=O)N[C@@H](CCC(=O)O)C(=O)N[C@@H](CCCNC(=N)N)C(=O)N[C@@H](C)C(=O)N[C@@H](CCCNC(=N)N)C(=O)N[C@@H](CC(=O)O)C(=O)N[C@@H](Cc1ccccc1)C(=O)N[C@H](C(=O)N[C@@H](C)C(=O)N[C@@H](Cc1c[nH]c2ccccc12)C(=O)N[C@@H](CC(C)C)C(=O)N[C@@H](CCC(=O)O)C(=O)N[C@@H](C)C(=O)NCC(=O)NCC(=O)O)C(C)C)C(=O)O | intraperitoneal glucose tolerance test | diet-induced obese mouse | subcutaneous, 10 nmol/kg daily, day 21, with: glucose 1 g/kg intraperitoneal | – | glucose AUC | 1290 mmol·min/L |
| O/N=C/c1cnn(-c2ccccc2)n1 | plasma recalcification time | human plasma | 10 µM | – | clotting time | 337 ± 36 s |
| N=C(N)NCCC[C@@H]1NC(=O)[C@H](CCCNC(=N)N)NC(=O)[C@H](CCCNC(=N)N)NC(=O)[C@H](Cc2ccc3ccccc3c2)NC(=O)[C@H](Cc2c[nH]c3ccccc23)NC(=O)[C@H](Cc2ccc3ccccc3c2)NC(=O)[C@H](CCCNC(=N)N)NC1=O | membrane leakage | bacterial mimic liposomes | 50 µg/mL, 100% leakage | – | time to dye leakage | 50 min |
| COc1c2c(cc3oc(CO)cc(=O)c13)O[C@H](C(C)(C)O)C2 | analgesic effect | Kunming mouse, female | oral, 1 mg/kg, 0 h, 55 °C, before dosing, 30 s cut-off | – | hot plate latency | 8.38 ± 0.89 s |
| CC(=O)N[C@@H](Cc1c[nH]c2ccccc12)C(=O)N[C@@H](CCCCN)C(=O)N[C@@H](Cc1ccccc1)C(=O)N[C@@H](CCC(=O)O)C(=O)N[C@@H](Cc1ccccc1)C(=O)N[C@@H](CCCCN)C(=O)N[C@@H](Cc1ccccc1)C(=O)N[C@@H](CCC(=O)O)C(N)=O | circular dichroism | 5% HFIP in water | 0.2 mM, 25 °C | – | time to self-assembly equilibrium | ~24 h |
| COc1cc(Cn2ccc3cc(C(=O)NCC45CC6CC(CC(C6)C4)C5)ccc32)ccc1C(=O)NO | immunohistochemistry | 5xFAD mouse, brain | intraperitoneal, 10 mg/kg once daily, 2 months | reference: vehicle | ASC aggresome size | decreased |
| COc1ccc(C2CC(c3ccc(C)cc3)=Nc3ccccc3S2)cc1 (stereo not drawn) | – | Wistar rat, STZ-induced diabetes | oral, 20 mg/kg once daily, day 14 | – | blood glucose | 161 ± 4.12 mg/dL |
| C[C@@H](N)C1CCN(S(=O)(=O)c2cccc3cnccc23)CC1 | – | spontaneously hypertensive rat, transient MCAO | intraperitoneal, 10 mg/kg, 7.5 h after reperfusion | – | hemorrhagic transformation incidence | 25% |
| C=C(c1cc(F)c(C(=O)O)c(F)c1)c1cc2c(cc1C)C(C)(C)CCC2(C)C | RNA sequencing, refers to: Upp1 | rat, brain | dose not given, 24 h | reference: vehicle | log2 fold change | 0.78 |
| COc1ccc2c(c1)c(CC(=O)OCC(=O)OC(C)(C)C)c(C)n2C(=O)c1ccc(Cl)cc1 | hot plate test | BALB/c mice | 75 mg/kg, 90 min | – | latency of nociceptive response | 14.3 ± 0.75 s |
| Cc1nc(C)c(C=[N+]([O-])C(C)(C)C)nc1C | HPLC-ECD | MPTP-treated mice | 30 mg/kg | – | striatal dopamine increase | 16.8% |
| COc1ccc(-n2cc(CO)nn2)cc1 | plasma recalcification time | human plasma | 1 µM | – | clotting time | 284 ± 4 s |
| CC[C@H](C)[C@H](NC(C)=O)C(=O)N[C@H]1CSSC[C@@H](C(=O)N(C)[C@H](C(N)=O)[C@@H](C)CC)NC(=O)[C@H](CCCNC(=N)N)NC(=O)[C@H](Cc2c[nH]cn2)NC(=O)[C@H](C)NC(=O)CN(C)C(=O)[C@H](Cc2c[nH]c3ccccc23)NC(=O)[C@H](CC(=O)O)NC(=O)[C@H](CCC(N)=O)NC(=O)[C@H](Cc2cn(C)c3ccccc23)NC(=O)[C@H](C(C)C)NC1=O | complement classical pathway, ELISA C3 deposition | human serum | – | reference: compstatin | potency relative to compstatin | 871 fold |
| CCOC(=O)CCC(NC(=O)C(NC(=O)c1c(C)nn(-c2cc[nH]c(=O)c2)c1C)C(C)C)C(=O)OCC (stereo not drawn) | single-cell RNA sequencing | intratumoral CD45+ immune cells, C57BL/6 mice, B16-F10 tumour | dose not given, with: anti-PD-L1 | reference: enantiomer | Ifng and Gzmb expression | increased |
| C(=C/c1ccccc1)/c1ccccc1 | cell proliferation, CellTiter-Glo | cord blood CD34+ cells, human | 24 h, lowest dose with significant inhibition | reference: vehicle | lowest effective concentration | 250 to 500 µM |
| COc1ccc(OC)c(C(=Cc2ccc(O)c(OC)c2)C(=O)NCCc2ccc(O)cc2)c1 | refers to: tyrosine hydroxylase | C57BL mice, MPTP/p Parkinson model, substantia nigra | 75 mg/kg, 8 weeks | reference: MPTP/p vehicle | TH-positive neuron number | increased |
| Cc1ccc([C@@H]2O[C@H](CO)[C@@H](O)[C@H](O)[C@H]2O)cc1Cc1ccc(-c2ccc(F)cc2)s1 | – | rabbit, STZ-nicotinamide diabetes, serum | 28 days | – | blood glucose | 180 ± 4.03 mg/dL |
| C=C(c1ncc(C(=O)O)cn1)c1cc2c(cc1C)C(C)(C)CCC2(C)C | RNA sequencing, refers to: Aurkb mRNA | rat, brain | dose not given, 24 h, single dose | reference: vehicle | log2 fold change | 0.34 |
| CC(=O)N[C@H](CSSC[C@H](N)C(=O)O)C(=O)N[C@H](C)C(=O)N[C@H](CCCNC(=N)N)C(=O)N[C@H](CCCNC(=N)N)C(=O)N[C@H](CCCNC(=N)N)C(=O)N[C@H](C)C(=O)N[C@H](CCCNC(=N)N)C(N)=O | – | healthy male human, urine | intravenous, 0.5 to 10 mg single | – | fractional calcium excretion | no effect |
| CC(C)[C@H](NC(=O)CN)C(=O)N[C@@H](CCCCN)C(=O)NCC(=O)N[C@@H](CC(=O)O)C(=O)N[C@@H](CCCCN)C(=O)NCC(=O)N[C@@H](CC(N)=O)C(=O)N1CCC[C@H]1C(=O)NCC(=O)N[C@@H](Cc1c[nH]c2ccccc12)C(=O)N1CCC[C@H]1C(=O)NCC(=O)N[C@@H](C)C(=O)N1CCC[C@H]1C(=O)O | – | K1735 M4 melanoma, mouse | 10 µg/mL coating, 30 to 40 min, 37 °C, peptide-coated plates | reference: input cells | cell adhesion | ~35% |
| O=[N+]([O-])c1cccc(S(=O)(=O)NC[C@@H](O)[C@@H]2CCc3cc(F)ccc3O2)c1 | – | rat, carrageenan paw oedema | oral, 100 mg/kg, 6 h after carrageenan | – | paw volume | 1.2 ± 0.38 mL |

Repeated from above:
| SMILES | assay | system | conditions | how to read | quantity | value |
| --- | --- | --- | --- | --- | --- | --- |
| CC[C@H](C)[C@H](NC(C)=O)C(=O)N[C@H]1CSSC[C@@H](C(=O)N(C)[C@H](C(N)=O)[C@@H](C)CC)NC(=O)[C@H](CCCNC(=N)N)NC(=O)[C@H](Cc2c[nH]cn2)NC(=O)[C@H](C)NC(=O)CN(C)C(=O)[C@H](Cc2c[nH]c3ccccc23)NC(=O)[C@H](CC(=O)O)NC(=O)[C@H](CCC(N)=O)NC(=O)[C@H](Cc2cn(C)c3ccccc23)NC(=O)[C@H](C(C)C)NC1=O | complement classical pathway, ELISA C3 deposition | human serum | – | reference: compstatin | potency relative to compstatin | 871 fold |
| CCOC(=O)CCC(NC(=O)C(NC(=O)c1c(C)nn(-c2cc[nH]c(=O)c2)c1C)C(C)C)C(=O)OCC (stereo not drawn) | single-cell RNA sequencing | intratumoral CD45+ immune cells, C57BL/6 mice, B16-F10 tumour | dose not given, with: anti-PD-L1 | reference: enantiomer | Ifng and Gzmb expression | increased |
